Published values from different studies.
Lines come from different studies, so protocols differ. Several values in a cell are separate wells, animals, samples, runs or records. Numbers after ± are the reported error.

SMILES	target or system	assay	test system	conditions	scale	quantity	result
COc1cc(N2CCN(C(=O)CN)CC2)ccc1Nc1ncc(Cl)c(Nc2ccccc2P(C)(C)=O)n1	NCI-H3122	CCK-8	–	5 nM, 48 h	–	viability	95%
O=S(=O)(N[C@H]1CCO[C@@H](C2c3ccc(F)cc3CCc3cc(F)ccc32)C1)c1ccc(OC(F)(F)F)cc1	D341	immunoblot, refers to: CIP2A	–	concentration not given	–	protein level	decreased
CC(C)C[C@@H](NC(=O)[C@H](C)NC(=O)CNC(=O)[C@@H](NC=O)C(C)C)C(=O)N[C@@H](C)C(=O)N[C@@H](C(=O)N[C@H](C(=O)N[C@@H](C(=O)N[C@@H](Cc1c[nH]c2ccccc12)C(=O)N[C@H](CC(C)C)C(=O)N[C@@H](Cc1c[nH]c2ccccc12)C(=O)N[C@H](CC(C)C)C(=O)N[C@@H](Cc1c[nH]c2ccccc12)C(=O)N[C@H](CC(C)C)C(=O)N[C@@H](Cc1c[nH]c2ccccc12)C(=O)NCCO)C(C)C)C(C)C)C(C)C	MCF7	flow cytometry	–	100 nM, 48 h	–	cells in S phase	17 ± 0.81%
CCCCCCc1cccc([C@H](O)C[C@H](CO)NC(=O)CCCCCOc2ccc3ccccc3c2)c1	HeLa	HPLC-MS-MS lipidomics, refers to: C20 SM and ceramide	–	1 µM, 24 h	baseline: SM over Cer	SM/Cer ratio	35 ,0
O=C(C[Se]C(=O)c1cc2ccccc2o1)Nc1cccc(C(F)(F)F)c1	NCI60 leukemia subpanel	cell growth	–	10 µM, 48 h, one-dose	–	mean growth percent	-76.7%
CN1CCCNC(=O)c2cccc(c2)C(=O)NCCCN(C)CCCNc2cccc3c2C(=O)c2cccc(c2C3=O)NCCC1	SAS	RNA-seq, refers to: MT-ATP8 mRNA	–	1 µM, 6 h	baseline: untreated cells	log2 fold change	-0.964
CN(C)C(=O)CNC(=O)c1ccc([C@H]2[C@@H](F)[C@@H](F)C[C@@H](F)[C@H]2F)cc1	–	liver microsome stability	human liver microsomes	1 µM, without NADPH	–	hepatic clearance	3.9 mL/min/kg
CNS(=O)(=O)Nc1nccc(Cc2c(C)c3ccc(Oc4ncccc4F)cc3oc2=O)c1F	CL-11	cell viability	–	7 days	–	IC50	0.00977 µM
CS(=O)(=O)c1ccc(-c2ccc(C3CCCCC3)cc2)cn1	–	liver microsome stability	rat liver microsomes	1 µM	–	hepatic clearance	48 mL/min/kg
CC(=O)N[C@@H](CC(=O)O)C(=O)N[C@@H](C)C(=O)N[C@@H](Cc1ccc(N)cc1)C(=O)N[C@@H](CC(=O)O)C(=O)COC(=O)c1c(C)cccc1C	THP-1 cells, LPS-primed	pyroptosis, LDH release	–	25 µM, LPS 1 µg/mL, 4 h, added: nigericin 5 µM, 2 h	–	cell lysis	96.2% and 79.6%
CCC(CC)Nc1ncc2c(/C=C/C(=O)N3CCC(OC)CC3)nn(Cc3cccc(C(F)(F)F)c3)c2n1	FLO-1	cell growth or viability, resazurin	–	5 days	–	EC50	7.94 µM
COc1ccc(C2CC(=O)c3c(cc(O)c(CC=C(C)C)c3O)O2)cc1 (stereo not drawn)	HeLa	cell growth or viability, MTT	–	3.125 µM, 48 h	–	inhibition	4.62%
N#C[C@@H]1CC(F)(F)CN1C(=O)CNC(=O)c1ccnc2ccc(OCCCN3CCN(C(=O)CCc4ccc5c(c4)CN4CCN(Cc6cc(CCC(=O)O)ccc6O)CC(=O)[O][Al-]([18F])([O]C(=O)C4)[O]5)CC3)cc12 (stereo partly drawn)	HT1080 cells expressing human FAP	–	–	60 min, 37 °C	–	internalized fraction	86.4 ± 1.1%
Cc1ncsc1-c1ccc(C(C)NC(=O)C2CC(O)CN2C(=O)C(NC(=O)CCCCCCCCCCN2CCCC(Nc3ncc(Cl)c(Nc4ccccc4S(=O)(=O)C(C)C)n3)C2)C(C)(C)C)cc1 (stereo not drawn)	22Rv1	RNA-seq, refers to: SLC37A2 mRNA	–	concentration not given	baseline: DMSO	log2 fold change	-2.44
Cn1ncc2cc(-c3cncc(Cl)c3N3CCC4(CCNC4=O)CC3)ccc21	LS174T	gene expression, microarray, refers to: PLD1 mRNA	–	concentration not given, 24 h	baseline: untreated cells	log2 fold change	-2.32
CCC(=CCc1c(O)cc2c(c1O)C(=O)CC(c1ccccc1O)O2)CC (stereo not drawn)	HeLa	cell growth or viability, MTT	–	15 µM, 48 h	–	inhibition	13.2%
CCOC(=O)c1cn(C23CCCC(C)(CCC4C2CC4(C)C)C3)nn1 (stereo not drawn)	HT-29	cell growth or viability, CCK-8	–	50 µM	–	inhibition	89.9%
Cc1n[nH]c(C)c1CCCOc1cc(C(=O)NCCCCC(NC(=O)CN2CCN(CC(=O)[O-])CCN(CC(=O)[O-])CCN(CC(=O)[O-])CC2)C(=O)NCC2CCC(C(=O)NC(Cc3ccc4ccccc4c3)C(=O)NCCCCC(NC(=O)NC(CCC(=O)O)C(=O)O)C(=O)O)CC2)ccc1F.[68Ga+3] (stereo not drawn)	22Rv1	–	–	2 h, efflux	baseline: dose	cell retention	3.35 ± 0.52%
CC12CCCC(NS(=O)(=O)C3CCN(Cc4ccccc4)C3)(C1)C1CC(C)(C)C1CC2 (stereo not drawn)	HT-29	cell growth or viability, CCK-8	–	10 µM	–	inhibition	55.2%
COc1ccc(COC[C@](O)(CNCc2ccc(F)cc2)[C@@H]2CC[C@@H](C)C[C@H]2OCc2ccc(OC)cc2)cc1	A2780	cell growth or viability, MTT	–	30 µM, 72 h	–	inhibition	100%
Cc1cc2oc(=O)cc(Cn3ccnc3)c2cc1O	COS-7 (untransfected)	–	–	500 µM, unit not given	baseline: 3 µM ionomycin	calcium mobilisation signal	6.76 ± 1.7

Some of these lines once more:
SMILES	target or system	assay	test system	conditions	scale	quantity	result
N#C[C@@H]1CC(F)(F)CN1C(=O)CNC(=O)c1ccnc2ccc(OCCCN3CCN(C(=O)CCc4ccc5c(c4)CN4CCN(Cc6cc(CCC(=O)O)ccc6O)CC(=O)[O][Al-]([18F])([O]C(=O)C4)[O]5)CC3)cc12 (stereo partly drawn)	HT1080 cells expressing human FAP	–	–	60 min, 37 °C	–	internalized fraction	86.4 ± 1.1%
Cc1ncsc1-c1ccc(C(C)NC(=O)C2CC(O)CN2C(=O)C(NC(=O)CCCCCCCCCCN2CCCC(Nc3ncc(Cl)c(Nc4ccccc4S(=O)(=O)C(C)C)n3)C2)C(C)(C)C)cc1 (stereo not drawn)	22Rv1	RNA-seq, refers to: SLC37A2 mRNA	–	concentration not given	baseline: DMSO	log2 fold change	-2.44
Cn1ncc2cc(-c3cncc(Cl)c3N3CCC4(CCNC4=O)CC3)ccc21	LS174T	gene expression, microarray, refers to: PLD1 mRNA	–	concentration not given, 24 h	baseline: untreated cells	log2 fold change	-2.32
